Assay results from different studies.
Every numbered part comes from another study and shows a few of its results, in no order. Positions count from the first letter of the parent shown.

Sample 1
Target: NFE2L3, bZIP domain (human)
Technique: DHFR protein complementation
Sample: yeast
Setting: single substitutions, most at no-binding floor
Relative to: wild-type JUN-FOS pair
Direction: higher = stronger binding
Starting sequence: JUN, bZIP domain (human); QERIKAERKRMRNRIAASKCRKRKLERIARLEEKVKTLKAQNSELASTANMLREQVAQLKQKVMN; partner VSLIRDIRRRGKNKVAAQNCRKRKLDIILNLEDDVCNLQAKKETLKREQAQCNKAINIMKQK
Variant | binding fitness
K39L | -1.41 natural log
A49T | -1.46 natural log
M51C | -1.39 natural log
A40M | -1.39 natural log
L52E | -1.5 natural log
S43W | -1.39 natural log
E44W | -1.57 natural log
Q41F | -1.54 natural log

Sample 2
Target: RING finger protein unkempt homolog, zinc fingers 1-6, GST-SBP tag (UNK, Homo sapiens, UniProt Q9C0B0, residues 30-357)
Chain of UniProt Q9C0B0 (30-357, looked up): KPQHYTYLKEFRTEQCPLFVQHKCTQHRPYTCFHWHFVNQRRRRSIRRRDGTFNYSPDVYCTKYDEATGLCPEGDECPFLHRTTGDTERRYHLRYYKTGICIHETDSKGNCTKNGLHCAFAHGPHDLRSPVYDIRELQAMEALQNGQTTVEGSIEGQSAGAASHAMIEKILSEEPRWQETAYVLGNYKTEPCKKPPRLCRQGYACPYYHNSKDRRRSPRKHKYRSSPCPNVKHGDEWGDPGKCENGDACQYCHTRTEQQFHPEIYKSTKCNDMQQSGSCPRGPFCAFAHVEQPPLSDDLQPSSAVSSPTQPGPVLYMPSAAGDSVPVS
Technique: RNA Bind-n-Seq
Molecule type: RNA
Sample: in vitro
Concentration: not given
Setting: RNA with constant flanks, ends assumed
Relative to: input RNA pool
Direction: higher = stronger binding
Oligonucleotide | bound/input enrichment
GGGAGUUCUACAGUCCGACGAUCUACAAGUAUUUUAAUUUAAGUUCAGUGAACUUUUUUGUAGCUGGGUUAAAUCUUUUUAUUUUCCGUAUGGCCUUAUGGCAAAGAACACUGUAUUAUUUUAAUAAUCACACGAUUGUGACGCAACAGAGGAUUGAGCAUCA | 0.555 ratio
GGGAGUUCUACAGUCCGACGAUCUAUAUGUAUGUUUUCAUUCCUGUUUUGUACGAGUGCCUCAUUUUGUAGUCAUGAAAGUAACACCGUACCUUAAAUAAAAAUGUAAUGACUAAUCUAAGGUCUAGGAAUAACUAUUGUAGACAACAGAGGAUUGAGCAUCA | 0.543 ratio
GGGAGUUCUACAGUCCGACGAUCCUCCAGAAAGAAAACAAAAUUAAUGCCUUGCAUCCUGGAAGUUCAUUUAGGAAUCUGAAAUCCGGGACUUCUUUAAAAUUUGGACAUGGCUAAUCGAGGAGCAACAAGACCCAACGGGCCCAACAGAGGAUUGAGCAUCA | 0.411 ratio
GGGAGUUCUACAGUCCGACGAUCCCCACACCAAGGGGCCAUGUGCAGCAAGAGCCAAGCAGGCAGCUGUCCAUACUCACUGCCCCGGUGACCCCAGCCCCAGGGCCCAGCCCCAGCCAUUCUGGCUUCAUGCCAGAGGCAGUUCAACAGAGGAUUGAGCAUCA | 0.101 ratio
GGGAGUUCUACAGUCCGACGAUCCAAUCUAGAAAUUUUGAAUACCAUGAGGAAAGACAUUUCCAUGGGCACUAUGACCCUGAAUACCGACAUGAUCAACAAAGACCCUUUACUUGGAGAAUGGAUGAUGAAAAACAUGGACAACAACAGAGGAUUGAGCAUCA | 3.13 ratio
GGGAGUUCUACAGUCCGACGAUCAGGUUACUUAUGCAUCAUAUCAGAGAUUGUUUACCAGAGCUGAAAACAAGAAUAAAUGUCUCCGCUGCUCAGUAUCAGUCUCUUCUAAAUAGCUAUGGUGAACCGGUGGAUGAUAAAAGUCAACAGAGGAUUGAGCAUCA | 0.107 ratio
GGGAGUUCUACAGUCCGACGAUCUUUUAUGAACGACUGGCUGGCCAUGGUCCAAAACUAGGACCUGUCACUAGAAAGCAUCCUUCCGUUACCAGGUAUUUUACUUUCCCAUUUGAAGAGAUAGACUUCUCCAUGGAAGAAUCUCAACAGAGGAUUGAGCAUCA | 0.152 ratio
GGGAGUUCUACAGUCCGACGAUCAAAUGACAAGCGAUAGGCUAUUGCAACCUGAGAAAGAGAACUGCUCCUUCAUCGUAAAUUCCGAAGACCAAGUAGAUAAUGGAACCAAAGUUGUUACUUUUUUCUAGUAGUUAUUUUUCCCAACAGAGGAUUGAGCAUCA | 0.866 ratio

Sample 3
Target: RNA binding protein fox-1 homolog 2, RRM domain, GST-SBP tag (RBFOX2, Homo sapiens, UniProt O43251-10, residues 100-194)
Technique: RNA Bind-n-Seq
Molecule type: RNA
Sample: in vitro
Concentration: 365 nM
Setting: natural RNA segment, single round, ends assumed
Relative to: no-protein control
Direction: higher = stronger binding
Residues (chain): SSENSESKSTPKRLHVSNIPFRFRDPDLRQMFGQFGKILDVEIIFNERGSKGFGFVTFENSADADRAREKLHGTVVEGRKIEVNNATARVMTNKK
Oligonucleotide | RBNS enrichment (R)
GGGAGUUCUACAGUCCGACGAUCAAUAUGAGCAUGCCCGCCUGGCUAGUAGGCAUCUGUAAGAGUGUCGCCAGGCCCGCGCCAGCUGAGGCCUCAGACUAGCCAGGCAAGAGCCGUCUGACCAGUUGGCUGGCUGGAAUUCUCGGGUGCCAA | 0.686
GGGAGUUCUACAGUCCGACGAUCAAGACCUGACGUACUCUGGUUAGGUUAGGACUUGCCCUCGUGGUGGAAACUUUUCUUAAAAAGUUAUAACCAACUUUUCUAUUAAAAGUGGGAAUUAGGAGAGAAGGUAGUGGAAUUCUCGGGUGCCAA | 0.351
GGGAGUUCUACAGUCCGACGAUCUCCCCACCAAGUGGCCUCUUAGACUAGUCAUUAACUUAUGAUUAGCUCUAAAGAUUUCAAAUAGUGGCAGACAGUGUCUUCUGAAUGUAAGUUUUGAGAAAUACGAGUCUUGGAAUUCUCGGGUGCCAA | 0.22
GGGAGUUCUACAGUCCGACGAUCAGGACCACGUUUAUAGCUUCAGGACCUGGCUACGUAAUUAUACUUAAAAUAUCCACUGGACACUGUGAAAUACACUAACAGGAUGGCUGGGUAGAGCAAUCUGGGCACUUUGGAAUUCUCGGGUGCCAA | 0.37
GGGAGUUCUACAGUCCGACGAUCGUUCAGCACGUCCCCCACCCUCUUCCUGCCGCCUGCAAACCUCACGUGCAGCUUUUCUAUAUGCACGUGUUUUAUUAAUCUGAAUAUUCUCCUUCUGUCUCGGUUUGUGUUGGAAUUCUCGGGUGCCAA | 1.43
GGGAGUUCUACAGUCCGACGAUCGCUUUGGCAUGAAAAGUGGUCCUCUUGACUGCAUUAUGCAUGCGAGGAUGAAAUAAACCUAGAAGUGGCAGAACACUGGAUUUGUGUGUGUGGCGCUUUAGGGUGCUGGAUGGAAUUCUCGGGUGCCAA | 17
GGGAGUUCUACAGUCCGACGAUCAGAUGUGUGCCAUACUCUGGUUCUUAGAGUUCCAGAGCUCCUUCAUUGGUUUUAAUAAACUCUAAGGUAGUUAAAGAUGAAGGGCCAGCAUAUAUUUAUAUGAUAAGUUUUGGAAUUCUCGGGUGCCAA | 0.447
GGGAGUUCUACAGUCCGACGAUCACAGGUUUGAACUUGCACUUCUUAAGGAACAGCCAUAAUCCUCUGAAUGAUGCAUUAAUUACUGACUGUCCUAGUACAUUGGAAGCUUUUGUUUAUAGGAACUUGUAGGGUGGAAUUCUCGGGUGCCAA | 1.83

Single results of other studies
Compound | cell line | test | conditions | scale | measurement | value
OCCN1CCN(CCCN2c3ccccc3Sc3ccc(Cl)cc32)CC1 | mouse MPNST tumor cells | high-content nuclear imaging, refers to: cell number | 10 µM, 12 h, mean of 2 replicates | relative to: plate mean, higher = more cells | nuclei count | -7.35 z-score

For quick reference, copied from above (sample 2):
Oligonucleotide | bound/input enrichment
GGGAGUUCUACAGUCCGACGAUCCCCACACCAAGGGGCCAUGUGCAGCAAGAGCCAAGCAGGCAGCUGUCCAUACUCACUGCCCCGGUGACCCCAGCCCCAGGGCCCAGCCCCAGCCAUUCUGGCUUCAUGCCAGAGGCAGUUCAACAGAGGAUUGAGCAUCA | 0.101 ratio
